{"data": "Measured values from different studies", "organism": "Pseudomonas aeruginosa"}
{"SMILES": "CC(C)[C@@H]1NC(=O)[C@@H]2CCCN2C(=O)[C@@H](C)NC(=O)[C@H](CO)NC(=O)[C@H](C)NC(=O)[C@H](C(C)(C)C)NC(=O)[C@H](CCO)NC(=O)[C@H](Cc2c[nH]c3ccccc23)NC(=O)[C@H](CCO)NC(=O)[C@@H](CCN)NC(=O)[C@H](CCC(N)=O)NC(=O)[C@H](CCN)NC(=O)[C@H](Cc2ccc(O)cc2)NC(=O)[C@H]([C@@H](C)O)NC1=O", "assay": "broth microdilution", "test system": "M-120", "setting": "16 h, 0.002% polysorbate-80", "MIC": "> 64 mg/L"}
{"SMILES": "CC(C)C[C@H](NC(=O)[C@H](CCCCN)NC(=O)[C@H](CCCCNC(=O)[C@H](CC(C)C)NC(=O)[C@H](CCCCN)NC(=O)[C@H](CCCCNC(=O)[C@H](CC(C)C)NC(=O)[C@H](CCCCN)NC(=O)[C@H](CCCCNC(=O)[C@H](CC(C)C)NC(=O)[C@@H](N)CCCCN)NC(=O)[C@H](CC(C)C)NC(=O)[C@@H](N)CCCCN)NC(=O)[C@H](CC(C)C)NC(=O)[C@H](CCCCN)NC(=O)[C@H](CCCCNC(=O)[C@H](CC(C)C)NC(=O)[C@@H](N)CCCCN)NC(=O)[C@H](CC(C)C)NC(=O)[C@@H](N)CCCCN)NC(=O)[C@H](CC(C)C)NC(=O)[C@H](CCCCN)NC(=O)[C@H](CCCCNC(=O)[C@H](CC(C)C)NC(=O)[C@H](CCCCN)NC(=O)[C@H](CCCCNC(=O)[C@H](CC(C)C)NC(=O)[C@@H](N)CCCCN)NC(=O)[C@H](CC(C)C)NC(=O)[C@@H](N)CCCCN)NC(=O)[C@H](CC(C)C)NC(=O)[C@H](CCCCN)NC(=O)[C@H](CCCCNC(=O)[C@H](CC(C)C)NC(=O)[C@@H](N)CCCCN)NC(=O)[C@H](CC(C)C)NC(=O)[C@@H](N)CCCCN)C(N)=O", "test system": "PAO1, LB medium", "MIC": "0.44 µM"}
{"SMILES": "CC(C)C[C@@H]1NC(=O)[C@H](CC(C)C)NC(=O)[C@H](CCCCN)NC(=O)CSC[C@@H](C(=O)N[C@@H](CCCCN)C(N)=O)NC(=O)[C@H](CCCCN)NC(=O)[C@H](CC(C)C)NC(=O)[C@H](CCCCN)NC(=O)[C@@H]2CSCC(=O)N[C@@H](CCCCN)C(=O)N[C@@H](CC(C)C)C(=O)N[C@@H](CC(C)C)C(=O)N[C@@H](CCCCNC1=O)C(=O)N[C@@H](CCCCN)C(=O)N[C@@H](CC(C)C)C(=O)N[C@@H](CC(C)C)C(=O)N2", "test system": "PAO1", "setting": "18 h", "MIC": "128 mg/L"}
{"SMILES": "CC[C@@H](C)[C@@H](NC(=O)[C@@H](C)NC(=O)[C@@H](CCCCN)NC(=O)[C@@H](CC(C)C)NC(=O)[C@@H](C)NC(=O)[C@H](NC(=O)[C@@H](Cc1c[nH]cn1)NC(=O)[C@@H](CC(C)C)NC(=O)[C@H](NC(=O)[C@H](NC(=O)[C@@H](CCCCN)NC(=O)[C@@H](CCCCN)NC(=O)[C@@H](C)NC(=O)[C@@H](CO)NC(=O)[C@@H](CCCCN)NC(=O)[C@@H](Cc1ccccc1)NC(=O)[C@H](NC(=O)[C@@H](CCCCN)NC(=O)[C@@H](CC(C)C)NC(=O)[C@@H](Cc1ccccc1)NC(=O)[C@@H](CO)NC(=O)[C@@H](CCCCN)NC(=O)[C@@H](Cc1c[nH]c2ccccc12)NC(=O)[C@@H](CCCCN)NC(C)=O)[C@H](C)O)[C@H](C)O)C(C)C)[C@H](C)O)C(=O)N[C@H](CO)C(=O)N[C@H](CO)C(N)=O", "test system": "PAO1", "MIC": "8 mg/L"}
{"SMILES": "CC[C@H](C)[C@H](NC(=O)[C@H](CC(C)C)NC(=O)[C@H](CO)NC(=O)[C@H](CC(C)C)NC(=O)[C@@H](N)CCSC)C(=O)N[C@@H](Cc1ccccc1)C(=O)N[C@@H](CC(C)C)C(=O)N[C@@H](Cc1c[nH]cn1)C(=O)N[C@@H](CCCNC(=N)N)C(=O)N[C@@H](CC(C)C)C(=O)N[C@@H](CCCCN)C(=O)N[C@@H](CO)C(=O)N[C@@H](CCSC)C(=O)N[C@@H](CCCNC(=N)N)C(=O)N[C@@H](CCCCN)C(=O)N[C@@H](CCCNC(=N)N)C(=O)N[C@@H](CC(C)C)C(=O)N[C@@H](CC(=O)O)C(=O)N[C@@H](CCCNC(=N)N)C(=O)N[C@@H](CCCCN)C(=O)N[C@@H](CC(C)C)C(=O)N[C@@H](CCCNC(=N)N)C(=O)N[C@@H](CC(C)C)C(=O)N[C@@H](Cc1c[nH]c2ccccc12)C(=O)N[C@@H](Cc1c[nH]cn1)C(=O)N[C@@H](CCCNC(=N)N)C(=O)N[C@@H](CCCCN)C(=O)N[C@@H](CC(N)=O)C(=O)N[C@@H](Cc1ccc(O)cc1)C(=O)N1CCC[C@H]1C(=O)O", "test system": "ATCC 27853", "MIC": "20 mg/L"}
{"SMILES": "CC[C@H](C)[C@H](NC(=O)[C@@H](NC(=O)[C@H](CCCCN)NC(=O)CNC(=O)[C@@H](NC(=O)[C@@H](NC(=O)[C@H](CO)NC(=O)[C@@H](NC(=O)[C@@H](NC(=O)[C@@H]1CCCN1C(=O)[C@@H](NC(=O)[C@@H](NC(=O)CN)[C@@H](C)CC)[C@@H](C)CC)[C@@H](C)CC)[C@@H](C)CC)[C@@H](C)CC)[C@@H](C)CC)[C@@H](C)CC)C(N)=O", "assay": "broth microdilution", "MIC": "> 30 µM"}
{"SMILES": "CC1C(=NOCc2cc(-c3ccc(Cl)cc3)no2)C(C)C(c2ccc(Cl)cc2)OC1c1ccc(Cl)cc1 (stereo not shown)", "assay": "microbial growth, broth dilution", "test system": "MTCC741", "setting": "24 h", "MIC": "25 mg/L"}
{"SMILES": "CCCCCCCC[C@@H]1NC(=O)[C@@H](Cc2ccccc2)NC(=O)[C@H](CCN)NC(=O)[C@@H](NC(=O)[C@H](CCN)NC(=O)[C@@H](NC(=O)[C@H](CCN)NC(=O)c2ccc(-c3ccccc3)cc2)[C@@H](C)O)CCNC(=O)[C@H]([C@@H](C)O)NC(=O)[C@H](CCN)NC(=O)[C@H](CCN)NC1=O", "assay": "broth microdilution", "test system": "ATCC 27853, polymyxin susceptible, CAMHB", "setting": "18 h, 37 °C", "MIC": "4 mg/L"}
{"SMILES": "N=C(N)NCCC[C@@H]1NC(=O)[C@H](CCCNC(=N)N)NC(=O)[C@H](CCCNC(=N)N)NC(=O)[C@H](CCCNC(=N)N)NC(=O)[C@H](Cc2c[nH]c3ccccc23)NC(=O)[C@H](CCCNC(=N)N)NC(=O)[C@H](CCCNC(=N)N)NC(=O)[C@@H](N)CCCCn2cc(nn2)C[C@@H](C(N)=O)NC1=O", "test system": "ATCC 27853", "setting": "24 h, 37 °C", "MIC": "125 mg/L"}
{"SMILES": "C[C@@H](N)[C@H](O)CCCCCCCC(=O)CCCCCCCCCCCCCC[C@@H](O[C@@H]1O[C@H](CO)[C@@H](O)[C@H](O)[C@H]1O)[C@@H](N)CO", "assay": "microbial growth, resazurin", "test system": "ATCC27853", "setting": "6 h", "MIC": "23.5 µM"}
